Measured values pooled from the literature.
Compare with care: the assays were run in different laboratories. Positions of bridges follow the written chain, without caps; N, C: chain ends. No end group written: not given here.
RGS4 residues 19-end: RGS4 residues 19-end 19-205, Alexa Fluor 568 label (Rattus norvegicus, UniProt P49799)
Chain of UniProt P49799 (whole entry, unmodified, looked up): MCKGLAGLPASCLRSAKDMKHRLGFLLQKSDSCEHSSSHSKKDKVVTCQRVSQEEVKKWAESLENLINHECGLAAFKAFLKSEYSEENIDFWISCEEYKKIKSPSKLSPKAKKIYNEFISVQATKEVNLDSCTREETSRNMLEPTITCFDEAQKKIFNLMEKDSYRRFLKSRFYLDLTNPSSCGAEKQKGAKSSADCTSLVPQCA
RGS4 residues 52-end: RGS4 residues 52-end 52-205, Alexa Fluor 532 label (Homo sapiens, UniProt P49798)
Chain of UniProt P49798 (whole entry, unmodified, looked up): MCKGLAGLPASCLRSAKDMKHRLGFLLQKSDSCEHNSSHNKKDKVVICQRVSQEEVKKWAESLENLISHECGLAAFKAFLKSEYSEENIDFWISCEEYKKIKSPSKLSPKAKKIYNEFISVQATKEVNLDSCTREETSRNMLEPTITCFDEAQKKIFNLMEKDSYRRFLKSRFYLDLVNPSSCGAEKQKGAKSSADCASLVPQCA
B1: apcB (Synechocystis sp. PCC 6803, UniProt Q01952); bilin at Cys81; sequence looked up; chain MQDAITAVINSADVQGKYLDGAAMDKLKSYFASGELRVRAASVISANAATIVKEAVAKSLLYSDVTRPGGNMYTTRRYAACIRDLDYYLRYATYAMLAGDASILDERVLNGLKETYNSLGVPISSTVQAIQAIKEVTASLVGADAGKEMGVYLDYICSGLS
B2: LSAMP ectodomain 32-306 (Homo sapiens, UniProt Q13449); chain VDFNRGTDNITVRQGDTAILRCVVEDKNSKVAWLNRSGIIFAGHDKWSLDPRVELEKRHSLEYSLRIQKVDVYDEGSYTCSVQTQHEPKTSQVYLIVQVPPKISNISSDVTVNEGSNVTLVCMANGRPEPVITWRHLTPTGREFEGEEEYLEILGITREQSGKYECKAANEVSSADVKQVKVTVNYPPTITESKSNEATTGRQASLKCEASAVPAPDFEWYRDDTRINSANGLEIKSTEGQSSLTVTNVTEEHYGNYTCVAANKLGVTNASLVLF
B3: POL30 (Saccharomyces cerevisiae, UniProt P15873); LD655 label on S6 tag; sequence looked up; chain MLEAKFEEASLFKRIIDGFKDCVQLVNFQCKEDGIIAQAVDDSRVLLVSLEIGVEAFQEYRCDHPVTLGMDLTSLSKILRCGNNTDTLTLIADNTPDSIILLFEDTKKDRIAEYSLKLMDIDADFLKIEELQYDSTLSLPSSEFSKIVRDLSQLSDSINIMITKETIKFVADGDIGSGSVIIKPFVDMEHPETSIKLEMDQPVDLTFGAKYLLDIIKGSSLSDRVGIRLSSEAPALFQFDLKSGFLQFFLAPKFNDEE
B4: VPS21 GTPγS-bound (Saccharomyces cerevisiae, UniProt P36017); chain MNTSVTSIKLVLLGEAAVGKSSIVLRFVSNDFAENKEPTIGAAFLTQRVTINEHTVKFEIWDTAGQERFASLAPMYYRNAQAALVVYDVTKPQSFIKARHWVKELHEQASKDIIIALVGNKIDMLQEGGERKVAREEGEKLAEEKGLLFFETSAKTGENVNDVFLGIGEKIPLKTAEEQNSASNERESNNQRVDLNAANDGTSANSACSC
B5: pum 548-776 (Drosophila melanogaster, UniProt P25822-1); sequence looked up; chain ESQPRPPNLLFPPLPFNHMLMDHGQGMGGGLGGVVGSGNGVGGGSGGGGAGGAYAAHQQMAAQMSQLQPPMMNGVGGGMPMAAQSPMLNHQAAGPNHMESPGNLLQQQNFDVQQLFRSQNPGLAAVATNAAAAAAAAAAATSAASAAAAVGAPPVPNGSLQQSQQQQQQQQQQQQQQQMHMAAASQQFLAAQQQAQNAAYAAQQATSYVINPGQEAAPYMGMIAAAQMP
B6: CSN2 mature (Bos taurus, UniProt P02666); sequence looked up; chain RELEELNVPGEIVESLSSSEESITRINKKIEKFQSEEQQQTEDELQDKIHPFAQTQSLVYPFPGPIPNSLPQNIPPLTQTPVVVPPFLQPEVMGVSKVKEAMAPKHKEMPFPKYPVEPFTESQSLTLTDVENLHLPLPLLQSWMHQPHQPLPPTVMFPPQSVLSLSQSKVLPVPQKAVPYPQRDMPIQAFLLYQEPVLGPVRGPFPIIV
B7: Nlgn2 43-612 (Rattus norvegicus, UniProt Q62888-1); sequence looked up; chain VVNTAYGRVRGVRRELNNEILGPVVQFLGVPYATPPLGARRFQPPEAPASWPGVRNATTLPPACPQNLHGALPAIMLPVWFTDNLEAAATYVQNQSEDCLYLNLYVPTEDGPLTKKRDEATLNPPDTDIRDSGKKPVMLFLHGGSYMEGTGNMFDGSVLAAYGNVIVATLNYRLGVLGFLSTGDQAAKGNYGLLDQIQALRWLSENIAHFGGDPERITIFGSGAGASCVNLLILSHHSEGLFQKAIAQSGTAISSWSVNYQPLKYTRLLAAKVGCDREDSTEAVECLRRKSSRELVDQDVQPARYHIAFGPVVDGDVVPDDPEILMQQGEFLNYDMLIGVNQGEGLKFVEDSAESEDGVSASAFDFTVSNFVDNLYGYPEGKDVLRETIKFMYTDWADRDNGEMRRKTLLALFTDHQWVAPAVATAKLHADYQSPVYFYTFYHHCQAEGRPEWADAAHGDELPYVFGVPMVGATDLFPCNFSKNDVMLSAVVMTYWTNFAKTGDPNQPVPQDTKFIHTKPNRFEEVVWSKFNSKEKQYLHIGLKPRVRDNYRANKVAFWLELVPHLHNLH
B8: UGT1A9 (Homo sapiens, UniProt O60656); chain GKLLVVPMDGSHWFTMRSVVEKLILRGHEVVVVMPEVSWQLGRSLNCTVKTYSTSYTLEDLDREFKAFAHAQWKAQVRSIYSLLMGSYNDIFDLFFSNCRSLFKDKKLVEYLKESSFDAVFLDPFDNCGLIVAKYFSLPSVVFARGILCHYLEEGAQCPAPLSYVPRILLGFSDAMTFKERVRNHIMHLEEHLLCHRFFKNALEIASEILQTPVTEYDLYSHTSIWLLRTDFVLDYPKPVMPNMIFIGGINCHQGKPLPMEFEAYINASGEHGIVVFSLGSMVSEIPEKKAMAIADALGKIPQTVLWRYTGTRPSNLANNTILVKWLPQNDLLGHPMTRAFITHAGSHGVYESICNGVPMVMMPLFGDQMDNAKRMETKGAGVTLNVLEMTSEDLENALKAVINDKSYKENIMRLSSLHKDRPVEPLDLAVFWVEFVMRHKGAPHLRPAAHDLTWYQYHSLDVIGFLLAVVLTVAFITFKCCAYGYRKCLGKKGRVKKAHKSKTH
B9: rps18 (Spinacia oleracea, UniProt Q9M3K7); sequence looked up; chain MDKSKRPFIKSKRSFRRRLPPIQSGDRIDYRNMSLISRFISEQGKILSRRVNRLTLKQQRLITSAIKQARILSLLPFLNNEKQFERTESTTRTANFRTKNK
B10: mmoB 1-138 (Methylosinus trichosporium, UniProt P27356); chain MSSAHNAYNAGIMQKTGKAFADEFFAEENQVVHESNAVVLVLMKSDEIDAIIEDIVLKGGKAKNPSIVVEDKAGFWWIKADGAIEIDAAEAGELLGKPFSVYDLLINVSSTVGRAYTLGTKFTITSELMGLDRALTDI
Chain of UniProt P82412 (whole entry, looked up): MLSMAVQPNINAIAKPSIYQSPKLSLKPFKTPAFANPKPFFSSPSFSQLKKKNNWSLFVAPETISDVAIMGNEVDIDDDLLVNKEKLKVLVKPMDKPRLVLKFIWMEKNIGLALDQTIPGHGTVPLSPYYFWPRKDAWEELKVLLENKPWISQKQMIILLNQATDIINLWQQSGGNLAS
Chain of UniProt Q55544 (whole entry, looked up): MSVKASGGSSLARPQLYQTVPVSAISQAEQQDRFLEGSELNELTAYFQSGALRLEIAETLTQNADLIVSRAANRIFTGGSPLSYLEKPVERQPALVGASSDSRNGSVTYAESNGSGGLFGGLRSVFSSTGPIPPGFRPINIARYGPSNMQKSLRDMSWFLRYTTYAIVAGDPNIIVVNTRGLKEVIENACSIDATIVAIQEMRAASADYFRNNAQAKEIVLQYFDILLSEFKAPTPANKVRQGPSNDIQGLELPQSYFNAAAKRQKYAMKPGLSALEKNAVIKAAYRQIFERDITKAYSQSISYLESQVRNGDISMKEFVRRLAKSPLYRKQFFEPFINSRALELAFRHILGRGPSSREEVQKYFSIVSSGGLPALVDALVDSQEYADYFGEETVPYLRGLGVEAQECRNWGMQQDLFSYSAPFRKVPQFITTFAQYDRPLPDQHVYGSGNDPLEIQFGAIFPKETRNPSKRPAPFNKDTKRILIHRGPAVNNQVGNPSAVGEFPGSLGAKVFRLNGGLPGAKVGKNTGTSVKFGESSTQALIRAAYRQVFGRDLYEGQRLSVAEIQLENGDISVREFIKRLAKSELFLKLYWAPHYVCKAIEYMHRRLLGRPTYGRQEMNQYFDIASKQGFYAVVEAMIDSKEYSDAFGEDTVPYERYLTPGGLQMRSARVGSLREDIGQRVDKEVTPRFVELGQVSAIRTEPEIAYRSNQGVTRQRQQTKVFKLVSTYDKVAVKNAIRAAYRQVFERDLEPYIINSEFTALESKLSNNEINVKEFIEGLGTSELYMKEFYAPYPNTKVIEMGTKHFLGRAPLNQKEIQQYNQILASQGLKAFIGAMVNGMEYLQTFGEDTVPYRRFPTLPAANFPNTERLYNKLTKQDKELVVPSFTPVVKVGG
Chain of UniProt Q06904 (whole entry, looked up): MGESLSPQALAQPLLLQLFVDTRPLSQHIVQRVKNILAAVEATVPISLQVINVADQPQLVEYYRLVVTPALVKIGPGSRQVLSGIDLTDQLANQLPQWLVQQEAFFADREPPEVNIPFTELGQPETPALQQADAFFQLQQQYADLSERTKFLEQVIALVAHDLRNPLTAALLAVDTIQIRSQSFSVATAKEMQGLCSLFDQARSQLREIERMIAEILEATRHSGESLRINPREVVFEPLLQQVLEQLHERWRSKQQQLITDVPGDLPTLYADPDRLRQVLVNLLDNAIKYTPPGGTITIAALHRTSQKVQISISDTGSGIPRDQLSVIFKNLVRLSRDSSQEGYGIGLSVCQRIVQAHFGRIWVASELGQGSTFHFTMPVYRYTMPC
Chain of UniProt P73354 (whole entry, unmodified, looked up): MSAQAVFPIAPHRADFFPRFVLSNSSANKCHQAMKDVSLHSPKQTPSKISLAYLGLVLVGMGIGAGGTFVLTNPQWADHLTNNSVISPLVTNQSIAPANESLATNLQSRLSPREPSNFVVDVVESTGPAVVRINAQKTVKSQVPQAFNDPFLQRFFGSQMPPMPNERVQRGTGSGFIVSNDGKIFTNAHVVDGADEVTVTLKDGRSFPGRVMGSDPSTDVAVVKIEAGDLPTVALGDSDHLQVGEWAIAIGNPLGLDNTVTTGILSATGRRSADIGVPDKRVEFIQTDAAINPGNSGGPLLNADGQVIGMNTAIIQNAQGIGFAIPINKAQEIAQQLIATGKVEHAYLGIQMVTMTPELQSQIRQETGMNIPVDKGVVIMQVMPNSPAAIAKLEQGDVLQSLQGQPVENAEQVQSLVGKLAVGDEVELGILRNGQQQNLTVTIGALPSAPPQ
Chain of UniProt Q31S42 (whole entry, looked up): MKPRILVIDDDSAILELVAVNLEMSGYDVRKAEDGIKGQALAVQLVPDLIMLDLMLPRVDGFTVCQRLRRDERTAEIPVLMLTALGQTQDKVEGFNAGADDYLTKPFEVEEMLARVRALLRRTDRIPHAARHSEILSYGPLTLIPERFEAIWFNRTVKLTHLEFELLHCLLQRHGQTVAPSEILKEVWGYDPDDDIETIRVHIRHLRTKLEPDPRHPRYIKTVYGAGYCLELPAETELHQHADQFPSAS
Chain of UniProt Q9H900 (whole entry, looked up): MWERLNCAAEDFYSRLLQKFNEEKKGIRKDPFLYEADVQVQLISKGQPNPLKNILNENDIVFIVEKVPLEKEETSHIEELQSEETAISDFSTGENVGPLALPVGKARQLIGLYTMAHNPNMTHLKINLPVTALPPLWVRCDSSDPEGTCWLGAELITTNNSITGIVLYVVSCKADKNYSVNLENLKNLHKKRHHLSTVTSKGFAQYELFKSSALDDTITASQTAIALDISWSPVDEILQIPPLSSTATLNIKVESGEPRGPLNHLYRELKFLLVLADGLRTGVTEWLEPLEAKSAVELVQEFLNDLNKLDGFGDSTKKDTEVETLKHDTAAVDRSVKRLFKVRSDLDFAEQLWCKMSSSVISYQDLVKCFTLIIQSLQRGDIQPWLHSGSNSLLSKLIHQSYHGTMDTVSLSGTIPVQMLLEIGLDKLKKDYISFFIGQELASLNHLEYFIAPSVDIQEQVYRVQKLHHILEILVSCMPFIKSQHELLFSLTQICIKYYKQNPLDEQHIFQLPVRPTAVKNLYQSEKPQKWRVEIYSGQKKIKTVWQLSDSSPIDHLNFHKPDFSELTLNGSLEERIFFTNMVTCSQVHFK
Chain of UniProt P27353 (whole entry, looked up): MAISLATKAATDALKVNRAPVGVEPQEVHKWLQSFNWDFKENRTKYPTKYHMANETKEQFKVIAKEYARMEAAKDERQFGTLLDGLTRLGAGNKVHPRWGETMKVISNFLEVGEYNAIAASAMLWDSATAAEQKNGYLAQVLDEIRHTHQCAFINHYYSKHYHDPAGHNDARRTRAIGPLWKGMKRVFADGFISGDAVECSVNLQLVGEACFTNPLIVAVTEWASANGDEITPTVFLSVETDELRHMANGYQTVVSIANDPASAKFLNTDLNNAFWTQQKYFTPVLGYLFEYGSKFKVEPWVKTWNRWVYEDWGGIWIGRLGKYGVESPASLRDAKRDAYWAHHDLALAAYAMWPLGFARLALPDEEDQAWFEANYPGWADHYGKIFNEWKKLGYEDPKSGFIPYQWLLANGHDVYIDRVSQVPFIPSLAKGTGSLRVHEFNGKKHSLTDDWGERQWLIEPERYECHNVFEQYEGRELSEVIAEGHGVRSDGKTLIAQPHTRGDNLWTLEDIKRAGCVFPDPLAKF
Chain of UniProt Q7Z3B1 (whole entry, looked up): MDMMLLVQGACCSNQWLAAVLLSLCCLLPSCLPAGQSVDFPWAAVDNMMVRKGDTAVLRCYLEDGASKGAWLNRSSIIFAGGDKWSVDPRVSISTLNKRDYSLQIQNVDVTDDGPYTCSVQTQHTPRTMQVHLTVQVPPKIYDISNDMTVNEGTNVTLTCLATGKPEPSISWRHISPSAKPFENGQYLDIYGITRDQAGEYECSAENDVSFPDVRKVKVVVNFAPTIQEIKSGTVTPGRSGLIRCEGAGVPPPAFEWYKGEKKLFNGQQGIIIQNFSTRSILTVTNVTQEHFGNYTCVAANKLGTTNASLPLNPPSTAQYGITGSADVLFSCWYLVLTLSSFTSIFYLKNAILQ
Chain of UniProt P40003 (whole entry, looked up): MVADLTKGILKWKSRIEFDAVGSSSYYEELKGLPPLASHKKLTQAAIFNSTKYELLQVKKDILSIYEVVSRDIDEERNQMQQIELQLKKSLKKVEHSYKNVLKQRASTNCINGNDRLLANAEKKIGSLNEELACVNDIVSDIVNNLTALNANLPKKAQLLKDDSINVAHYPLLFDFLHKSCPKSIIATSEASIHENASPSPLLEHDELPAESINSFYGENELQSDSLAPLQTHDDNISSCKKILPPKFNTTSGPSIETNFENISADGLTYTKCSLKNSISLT

| Molecule | target or system | test | system | conditions | measurement | result |
| --- | --- | --- | --- | --- | --- | --- |
| B1 (apcB) | apcE, phycocyanobilin (Synechocystis sp. PCC 6803, UniProt Q55544) | cross-linking | – | – | binding | binds |
| B2 (LSAMP ectodomain 32-306) | NEGR1 ectodomain 38-313 (Homo sapiens, UniProt Q7Z3B1) | SPR | – | – | binding | binds |
| SQSVLYS | – | – | peptide, human polyclonal IgM RF WEAK | concentration not given, 5 µg/mL mAb II-481 coated, together with: RF at 50% max binding concentration | inhibition | 0% |
| ZWILCH (Homo sapiens, UniProt Q9H900) | MAD1L1/MAD2L1, pS546 on MAD1 (Homo sapiens) | pull-down | – | – | binding | binds |
| YNCQGECE-NH2 (designed peptide; disulfide 3-7; also: on OBOC bead: half N-acetylated, half free N-terminus; half N-acetyl, half free N-terminus/C-amide/cyclic disulfide Cys3-Cys7) | RGS4 residues 19-end | fluorescence imaging of beads | peptide | – | binding | binds |
| B3 (POL30) | POL3/POL31/POL32 Pol delta heterotrimer (Saccharomyces cerevisiae) | single-molecule colocalization | – | together with: ATP and dNTPs | binding | binds |
| rpaA (Synechococcus elongatus, UniProt Q31S42) | sasA (Synechococcus elongatus, UniProt Q06904) | fluorescence polarisation | – | without KaiC | binding | binds |
| B4 (VPS21 GTPγS-bound) | BLOC-1 complex (UniProt P40003) | pull-down | – | together with: GTPγS | binding | binds |
| B5 (pum 548-776) | CNOT1/CNOT2/CNOT3/CNOT10/CNOT11/CNOT7/CNOT6/CNOT9 CCR4-NOT complex 1-2376 (Homo sapiens) | pull-down | – | – | binding | binds |
| B6 (CSN2 mature) | htrA residues 94-end 94-452 S296A (Synechocystis sp. PCC 6803, UniProt P73354) | SEC | – | – | binding | binds |
| LHNHYT | – | – | peptide, human polyclonal IgM RF SOR | concentration not given, 5 µg/mL mAb II-481 coated, together with: RF at 50% max binding concentration | inhibition | 0% |
| B7 (Nlgn2 43-612) | MDGA1 ectodomain 22-920 T333C/Y519C (Homo sapiens) | SPR | – | 25 °C, NaCl 150 mM | binding | binds |
| KVCMGGCT-NH2 (designed peptide; disulfide 3-7; also: on OBOC bead: half N-acetylated, half free N-terminus; half N-acetyl, half free N-terminus/C-amide/cyclic disulfide Cys3-Cys7) | RGS4 residues 19-end | fluorescence imaging of beads | peptide | – | binding | binds |
| B8 (UGT1A9) | CCN(CC)C(=O)/C(C#N)=C/c1cc(O)c(O)c([N+](=O)[O-])c1 | steady-state kinetics | – | pH 7.4, 37 °C | Vmax/Km | 10200 µL/min/mg |
| Ac-YWCKGLCK-NH2 (designed peptide; disulfide 3-7; SMILES CC(=O)N[C@@H](Cc1ccc(O)cc1)C(=O)N[C@@H](Cc1c[nH]c2ccccc12)C(=O)N[C@H]1CSSC[C@@H](C(=O)N[C@@H](CCCCN)C(N)=O)NC(=O)[C@H](CC(C)C)NC(=O)CNC(=O)[C@H](CCCCN)NC1=O; N-acetyl, C-amide, Cys3-Cys7 disulfide) | RGS4 residues 52-end | flow cytometry | peptide | room temperature | binding | binds |
| B9 (rps18) | PSRP3 mature (Spinacia oleracea, UniProt P82412) | cryo-EM structure | – | native chloroplast 70S ribosome | binding | binds |
| H-LVCKGYCQ-NH2 (designed peptide; disulfide 3-7; SMILES CC(C)C[C@H](N)C(=O)N[C@H](C(=O)N[C@H]1CSSC[C@@H](C(=O)N[C@@H](CCC(N)=O)C(N)=O)NC(=O)[C@H](Cc2ccc(O)cc2)NC(=O)CNC(=O)[C@H](CCCCN)NC1=O)C(C)C; free N-terminus/C-amide/cyclic disulfide Cys3-Cys7) | RGS4 residues 52-end | flow cytometry | peptide | room temperature | binding | binds |
| B10 (mmoB 1-138) | mmoX (Methylosinus trichosporium, UniProt P27353) | crystal structure | – | pH 7 | binding | binds |
| H-KLCHGYCH-NH2 (designed peptide; disulfide 3-7; SMILES CC(C)C[C@H](NC(=O)[C@@H](N)CCCCN)C(=O)N[C@H]1CSSC[C@@H](C(=O)N[C@@H](Cc2c[nH]cn2)C(N)=O)NC(=O)[C@H](Cc2ccc(O)cc2)NC(=O)CNC(=O)[C@H](Cc2c[nH]cn2)NC1=O; free N-terminus/C-amide/cyclic disulfide Cys3-Cys7) | RGS4 residues 52-end | flow cytometry | peptide | room temperature | binding | binds |
| Bmper (Mus musculus, UniProt Q8CJ69) | CHRD/BMP4 full length complex (Xenopus laevis/Homo sapiens) | co-IP | – | together with: BMP4 | binding | binds |

For quick reference, copied from above:
| Molecule | target or system | test | system | conditions | measurement | result |
| --- | --- | --- | --- | --- | --- | --- |
| KVCMGGCT-NH2 (designed peptide; disulfide 3-7; also: on OBOC bead: half N-acetylated, half free N-terminus; half N-acetyl, half free N-terminus/C-amide/cyclic disulfide Cys3-Cys7) | RGS4 residues 19-end | fluorescence imaging of beads | peptide | – | binding | binds |
| YNCQGECE-NH2 (designed peptide; disulfide 3-7; also: on OBOC bead: half N-acetylated, half free N-terminus; half N-acetyl, half free N-terminus/C-amide/cyclic disulfide Cys3-Cys7) | RGS4 residues 19-end | fluorescence imaging of beads | peptide | – | binding | binds |
